Experimental data collected from several papers.
Compare with care: the assays were run in different laboratories. pIC50: −log10 of the molar value.
Target: Muscarinic acetylcholine receptor M2 (CHRM2, Homo sapiens, UniProt P08172)

SMILES = CN[C@@H]1[C@H](O)[C@H](NC)[C@H]2O[C@]3(O)[C@H](O[C@@H]2[C@H]1O)O[C@H](C)C[C@H]3NC(=O)Cc1ccc(Cl)cn1; assay = ligand displacement, radioligand; conditions = 10 µM; endpoint = inhibition; result = -3%
SMILES = N[C@H](C(=O)N1CCCC1)C1CCN(c2nccc3c(-c4ncc(Cl)cc4Cl)cccc23)CC1; assay = functional response, agonist; conditions = 10 µM; endpoint = response; result = -5%
SMILES = CCCO[C@H]1[C@H](O)[C@@H](N)[C@@H](O[C@H]2[C@H](O[C@@H]3O[C@H](CO)[C@@H](O[C@H]4O[C@@H](CN)[C@@H](O)[C@H](O)[C@H]4N)[C@H]3O)[C@@H](O)[C@H](N)C[C@@H]2N)O[C@@H]1CO; assay = radioligand binding; conditions = 10 µM, 1% DMSO; endpoint = specific binding; result = 4%
SMILES = Cc1cc(Nc2nc(C[C@@]3(C(=O)O)CCN(Cc4cccc(Cl)c4F)[C@H](C)C3)cc(C)c2F)[nH]n1; assay = inhibitor; conditions = 10 µM; endpoint = inhibition; result = 2.06%
SMILES = CCOC(=O)[C@](CC)(CCCSCCOCCOCCNC(=O)c1ccc(-c2c3ccc(=N)c(S(=O)(=O)O)c-3oc3c(S(=O)(=O)O)c(N)ccc23)c(C(=O)O)c1)NC(=O)c1ccc(C2CC2)c(Cc2ccc(F)cc2)n1; assay = ligand displacement, radioligand; conditions = 10 µM; endpoint = inhibition; result = 8%
SMILES = CS(C)(=O)=Nc1ccc(-c2ccc(-c3nc4cc(O[C@@H]5CO[C@H]6[C@@H]5OC[C@H]6O)[nH]c4cc3F)cc2)cc1; assay = calcium signal, antagonist; conditions = 10 µM; endpoint = inhibition; result = -7%
SMILES = O=C(O)c1ccc(-c2nc(-c3ccccc3Cl)c3sccn23)cc1; assay = radioligand binding; conditions = 10 µM, safety screen panel; scale = baseline: control; endpoint = specific binding; result = 114%
SMILES = CCc1nnc(-c2c(OC)cc(-c3cnc4cc(-c5cnn(C)c5)ccn34)cc2OC)o1; assay = antagonist radioligand, radioligand binding; conditions = 10 µM, SafetyScreen44 M2 replicate 2; scale = lower = stronger displacement; endpoint = remaining binding; result = 91.5%
SMILES = C[C@@H]1COCCN1c1nc(NCc2cccnc2C(F)(F)F)c2cccnc2n1; assay = binding; conditions = CEREP panel; endpoint = pIC50; result = < 4.00
SMILES = Cc1cc(-c2ccc3ccccc3c2)nnc1NCCN1CCN(C)CC1; assay = antagonist; conditions = concentration not given; endpoint = antagonist activity; result = negative
SMILES = C[C@H](NCc1ccc(-c2ccc(C(F)(F)F)cc2)cc1)C(N)=O; assay = radioligand binding; conditions = 1 µM, together with: [3H]N-methylscopolamine 0.80 nM; endpoint = inhibition of binding; result = -2%
SMILES = Cc1sc2c(c1C)C(c1ccc(Cl)cc1)=NC(CC(=O)OC(C)(C)C)c1nnc(C)n1-2 (stereo not drawn); assay = ligand displacement, radioligand; conditions = 1 µM; endpoint = inhibition; result = 2%
SMILES = COc1ccc(F)cc1S(=O)(=O)Nc1cnc2c(c1)C(=O)NCCO2; assay = ligand displacement, radioligand; conditions = 10 µM; endpoint = inhibition; result = 1%
SMILES = C/C(=N\OCCCN1CCCCC1)c1ccc(C(F)(F)F)cc1; assay = agonist, IP-One; conditions = 10 µM; endpoint = activation; result = -3.24%
SMILES = CCN(CC)CCOc1ccc(-c2nnn(Cc3ccc(OC)cc3)c2N)cc1; assay = radioligand binding; test system = HEK293; conditions = 10 µM, safety profiling; endpoint = inhibition; result = 41.2%

Excerpt of the above:
SMILES = Cc1cc(Nc2nc(C[C@@]3(C(=O)O)CCN(Cc4cccc(Cl)c4F)[C@H](C)C3)cc(C)c2F)[nH]n1; assay = inhibitor; conditions = 10 µM; endpoint = inhibition; result = 2.06%
